Measurements collected from several papers.
Each line is one published result; not all experiments were run side by side.
DMPK: Myotonin-protein kinase (DMPK, Homo sapiens, UniProt Q09013)
Sequence of UniProt Q09013 (whole entry, looked up): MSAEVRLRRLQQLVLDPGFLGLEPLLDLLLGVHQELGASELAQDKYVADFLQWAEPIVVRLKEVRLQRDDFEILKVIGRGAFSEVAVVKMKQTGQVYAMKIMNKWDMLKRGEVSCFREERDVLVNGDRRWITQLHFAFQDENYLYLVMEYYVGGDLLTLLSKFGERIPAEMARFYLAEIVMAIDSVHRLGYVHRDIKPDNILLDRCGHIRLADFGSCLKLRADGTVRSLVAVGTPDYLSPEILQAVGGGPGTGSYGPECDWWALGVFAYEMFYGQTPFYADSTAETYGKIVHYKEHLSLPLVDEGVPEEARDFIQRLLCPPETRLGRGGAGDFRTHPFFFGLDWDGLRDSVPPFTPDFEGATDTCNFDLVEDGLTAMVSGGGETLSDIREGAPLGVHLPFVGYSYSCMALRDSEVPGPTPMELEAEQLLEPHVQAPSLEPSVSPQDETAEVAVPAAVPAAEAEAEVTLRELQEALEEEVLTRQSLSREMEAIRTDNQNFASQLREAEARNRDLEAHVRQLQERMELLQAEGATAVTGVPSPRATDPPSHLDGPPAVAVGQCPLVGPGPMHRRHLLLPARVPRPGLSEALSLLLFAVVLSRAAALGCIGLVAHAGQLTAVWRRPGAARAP
FLT4: Vascular endothelial growth factor receptor 3 (FLT4, Homo sapiens, UniProt P35916)
Sequence of UniProt P35916 (whole entry, looked up): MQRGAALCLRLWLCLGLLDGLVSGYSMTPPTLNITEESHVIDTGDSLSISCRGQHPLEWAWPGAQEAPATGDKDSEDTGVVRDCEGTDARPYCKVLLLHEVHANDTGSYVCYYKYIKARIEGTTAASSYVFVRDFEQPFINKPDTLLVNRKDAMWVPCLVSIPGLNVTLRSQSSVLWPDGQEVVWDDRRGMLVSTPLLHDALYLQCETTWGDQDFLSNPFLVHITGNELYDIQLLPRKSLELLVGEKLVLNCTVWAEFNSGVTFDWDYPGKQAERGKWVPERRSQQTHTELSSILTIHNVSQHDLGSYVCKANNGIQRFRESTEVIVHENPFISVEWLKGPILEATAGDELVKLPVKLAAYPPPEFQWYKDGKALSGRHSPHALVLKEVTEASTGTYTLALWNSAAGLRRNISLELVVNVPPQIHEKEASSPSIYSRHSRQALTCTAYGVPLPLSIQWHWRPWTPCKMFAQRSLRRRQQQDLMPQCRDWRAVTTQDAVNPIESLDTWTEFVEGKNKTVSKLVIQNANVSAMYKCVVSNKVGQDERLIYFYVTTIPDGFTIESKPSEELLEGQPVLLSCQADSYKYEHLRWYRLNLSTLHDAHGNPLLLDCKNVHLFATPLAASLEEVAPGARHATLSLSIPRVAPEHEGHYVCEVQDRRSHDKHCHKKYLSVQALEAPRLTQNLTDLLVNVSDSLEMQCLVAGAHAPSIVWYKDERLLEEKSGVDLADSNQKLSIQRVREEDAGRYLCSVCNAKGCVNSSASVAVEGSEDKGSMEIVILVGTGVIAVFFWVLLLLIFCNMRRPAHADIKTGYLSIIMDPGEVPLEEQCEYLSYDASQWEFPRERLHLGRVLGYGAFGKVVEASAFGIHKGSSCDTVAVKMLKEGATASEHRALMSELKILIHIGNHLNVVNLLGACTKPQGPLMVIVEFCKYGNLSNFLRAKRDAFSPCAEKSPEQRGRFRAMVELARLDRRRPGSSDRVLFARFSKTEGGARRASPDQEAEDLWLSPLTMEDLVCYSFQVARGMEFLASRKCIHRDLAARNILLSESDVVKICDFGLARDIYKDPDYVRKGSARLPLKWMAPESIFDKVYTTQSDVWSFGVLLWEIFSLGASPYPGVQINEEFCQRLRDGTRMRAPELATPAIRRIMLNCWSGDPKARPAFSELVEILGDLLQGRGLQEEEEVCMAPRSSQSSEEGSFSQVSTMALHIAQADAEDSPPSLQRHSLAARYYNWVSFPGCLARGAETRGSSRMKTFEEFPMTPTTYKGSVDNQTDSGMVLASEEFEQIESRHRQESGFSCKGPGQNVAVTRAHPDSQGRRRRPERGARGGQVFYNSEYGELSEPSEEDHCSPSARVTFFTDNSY
Sequence of UniProt P51817 (whole entry, looked up): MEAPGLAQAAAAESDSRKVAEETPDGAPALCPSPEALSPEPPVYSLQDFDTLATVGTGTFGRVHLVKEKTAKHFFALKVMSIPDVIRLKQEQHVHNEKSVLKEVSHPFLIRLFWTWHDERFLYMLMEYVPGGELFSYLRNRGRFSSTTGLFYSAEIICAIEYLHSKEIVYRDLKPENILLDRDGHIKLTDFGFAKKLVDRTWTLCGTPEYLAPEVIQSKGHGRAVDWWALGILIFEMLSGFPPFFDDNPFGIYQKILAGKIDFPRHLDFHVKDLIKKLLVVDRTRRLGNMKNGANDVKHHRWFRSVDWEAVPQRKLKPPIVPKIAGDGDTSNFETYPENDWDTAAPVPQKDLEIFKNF
Sequence of UniProt Q05513 (whole entry, looked up): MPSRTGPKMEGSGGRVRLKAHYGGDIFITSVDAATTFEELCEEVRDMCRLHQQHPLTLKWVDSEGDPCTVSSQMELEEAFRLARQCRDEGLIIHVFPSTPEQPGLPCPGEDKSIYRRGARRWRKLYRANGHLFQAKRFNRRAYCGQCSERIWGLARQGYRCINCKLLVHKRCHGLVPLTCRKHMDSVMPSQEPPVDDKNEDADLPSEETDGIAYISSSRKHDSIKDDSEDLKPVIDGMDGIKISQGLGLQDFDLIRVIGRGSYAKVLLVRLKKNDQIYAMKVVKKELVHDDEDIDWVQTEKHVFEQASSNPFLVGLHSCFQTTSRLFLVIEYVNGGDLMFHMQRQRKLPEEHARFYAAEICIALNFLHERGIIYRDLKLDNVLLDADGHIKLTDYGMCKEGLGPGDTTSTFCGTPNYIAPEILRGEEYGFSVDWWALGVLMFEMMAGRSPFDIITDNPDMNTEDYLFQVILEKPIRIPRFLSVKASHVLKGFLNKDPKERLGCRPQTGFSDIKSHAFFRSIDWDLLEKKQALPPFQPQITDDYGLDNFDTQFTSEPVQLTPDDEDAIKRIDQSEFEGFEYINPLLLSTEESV
Sequence of UniProt Q16832 (whole entry, looked up): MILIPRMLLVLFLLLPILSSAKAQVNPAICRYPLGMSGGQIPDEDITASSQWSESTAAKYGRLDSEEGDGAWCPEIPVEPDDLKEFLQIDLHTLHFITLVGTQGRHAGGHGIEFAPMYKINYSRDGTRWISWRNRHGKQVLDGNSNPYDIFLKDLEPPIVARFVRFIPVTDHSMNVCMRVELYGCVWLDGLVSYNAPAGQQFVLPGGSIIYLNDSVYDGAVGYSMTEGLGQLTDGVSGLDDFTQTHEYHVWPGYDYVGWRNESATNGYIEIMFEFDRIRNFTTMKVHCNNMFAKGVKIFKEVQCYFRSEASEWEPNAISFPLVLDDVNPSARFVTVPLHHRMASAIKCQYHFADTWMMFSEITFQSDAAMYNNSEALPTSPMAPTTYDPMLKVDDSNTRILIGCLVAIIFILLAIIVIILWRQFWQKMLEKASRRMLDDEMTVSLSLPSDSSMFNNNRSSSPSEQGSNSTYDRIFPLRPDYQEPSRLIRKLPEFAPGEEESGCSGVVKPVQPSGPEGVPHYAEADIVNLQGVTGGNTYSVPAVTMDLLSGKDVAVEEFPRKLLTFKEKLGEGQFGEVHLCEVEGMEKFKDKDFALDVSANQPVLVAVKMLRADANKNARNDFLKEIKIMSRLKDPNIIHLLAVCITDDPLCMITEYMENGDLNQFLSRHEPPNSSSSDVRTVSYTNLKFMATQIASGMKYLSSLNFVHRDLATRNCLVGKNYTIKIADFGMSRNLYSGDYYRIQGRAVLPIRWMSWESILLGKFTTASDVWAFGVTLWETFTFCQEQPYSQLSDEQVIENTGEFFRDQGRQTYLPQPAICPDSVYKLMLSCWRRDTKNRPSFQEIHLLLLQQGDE
Sequence of UniProt P49935 (whole entry, looked up): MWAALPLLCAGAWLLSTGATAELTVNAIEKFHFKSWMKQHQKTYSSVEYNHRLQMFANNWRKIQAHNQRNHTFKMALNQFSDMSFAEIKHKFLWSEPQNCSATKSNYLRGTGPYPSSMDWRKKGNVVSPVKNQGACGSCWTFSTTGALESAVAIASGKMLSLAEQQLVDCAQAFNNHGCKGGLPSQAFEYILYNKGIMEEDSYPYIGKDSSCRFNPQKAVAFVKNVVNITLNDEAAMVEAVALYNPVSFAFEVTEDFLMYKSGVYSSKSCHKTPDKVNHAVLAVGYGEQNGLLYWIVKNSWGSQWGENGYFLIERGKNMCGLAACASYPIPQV

With `COc1cc(Nc2ncc3c(n2)-c2ccc(Cl)cc2C(c2c(F)cccc2OC)=NC3)ccc1C(=O)O` the remaining activity was 60% (ERBB4; kinase activity; 1 µM).
`Cc1cc(Nc2cc(N3CCN(C)CC3)nc(Sc3ccc(NC(=O)C4CC4)cc3)n2)[nH]n1` has a remaining activity of 95% (Discoidin domain-containing receptor 2 (DDR2, Homo sapiens, UniProt Q16832); kinase activity, KinaseProfiler; 0.03 µM, species human; reference: control).
With `C=CC(=O)N1CCC[C@@H](n2nc(-c3ccc(Oc4ccccc4)cc3)c3c(N)ncnc32)C1` the remaining activity was 43.3% (Non-receptor tyrosine-protein kinase TYK2 (TYK2, Homo sapiens, UniProt P29597); 0.1 µM).
The remaining activity of `COc1cc(-c2cncc3c2CN(C)Cc2cc(N4CCNCC4)ccc2-3)cc(OC)c1OC` is reported as 100% (DMPK; kinase activity; 1 µM, human enzyme, with: ATP 10 µM; reference: DMSO control).
`c1cnc2ccc(Nc3nc(NC4CC4)c4nc[nH]c4n3)cc2c1` has a remaining activity of 75% (FLT4; kinase activity, inhibitor, SelectScreen kinase profiling; 1 µM; reference: control).
With `O=C1NC(=O)/C(=C/c2ccc(-c3ccc(F)cc3O)o2)S1` the remaining activity was 96% (Protein kinase C zeta type (PRKCZ, Homo sapiens, UniProt Q05513); enzyme activity; 10 µM).
With `CNc1ncc2c(/C=C/C(=O)N3CCC(OC)CC3)nn(Cc3cccc(C(F)(F)F)c3)c2n1` the remaining activity was 97% (DMPK; kinase activity, inhibitor; 1 µM; reference: untreated control).
`NC(=O)c1ncn([C@@H]2O[C@H](CO[P@@](=O)(O)O[P@](=O)(O)OP(=O)(O)O)[C@@H](O)[C@H]2O)n1` has a remaining activity of 93.1% (Non-structural polyprotein pORF1, helicase domain (Hepatitis E virus genotype 1, UniProt P33424); ATPase activity, inhibitor, colorimetric; 28 µM; reference: untreated).
`O=C(O)c1ccc(Nc2ncc3c(n2)-c2ccc(Cl)cc2C(c2c(F)cccc2F)=NC3)cc1` gave a remaining activity of 94% (PAK3(h); kinase activity; 1 µM).
`O=C(NC1CCC1)c1ccc2nc(-c3cccc(NS(=O)(=O)NCCN4CCCCC4)c3)cn2c1` has a remaining activity of 100% (cAMP-dependent protein kinase catalytic subunit PRKX (PRKX, Homo sapiens, UniProt P51817); enzyme activity; 10 µM).
`COc1cc(F)ccc1-c1ncnc(Nc2cccc(C[S@](C)(=N)=O)c2)n1` gave a remaining activity of 30% (FLT4; kinase activity; 10 µM, with: 10 µM ATP).
`Cc1cccc(C)c1C(=O)OCC(=O)[C@H](CCCCN)NC(=O)[C@H](CCCNC(=N)N)NC(=O)OCc1ccccc1` gave a remaining activity of 100% (Pro-cathepsin H (Ctsh, Mus musculus, UniProt P49935); inhibitor; 10 µM, with: AMC fluorogenic substrate; reference: untreated).

Excerpt of the above:
`Cc1cc(Nc2cc(N3CCN(C)CC3)nc(Sc3ccc(NC(=O)C4CC4)cc3)n2)[nH]n1` has a remaining activity of 95% (Discoidin domain-containing receptor 2 (DDR2, Homo sapiens, UniProt Q16832); kinase activity, KinaseProfiler; 0.03 µM, species human; reference: control).
